Assay results pooled from the literature.
T1: RNA aptamer; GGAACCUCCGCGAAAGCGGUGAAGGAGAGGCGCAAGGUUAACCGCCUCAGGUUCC
T2: RNA aptamer; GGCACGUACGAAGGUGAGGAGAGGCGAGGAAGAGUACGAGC
T3: RNA aptamer; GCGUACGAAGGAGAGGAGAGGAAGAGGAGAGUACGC
T4: RNA aptamer; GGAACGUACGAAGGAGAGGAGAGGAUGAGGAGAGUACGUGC
T5: RNA aptamer; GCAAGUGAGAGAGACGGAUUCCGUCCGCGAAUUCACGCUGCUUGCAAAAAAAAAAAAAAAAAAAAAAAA
T6: RNA aptamer; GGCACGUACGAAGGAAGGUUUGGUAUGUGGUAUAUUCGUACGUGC
T7: RNA aptamer; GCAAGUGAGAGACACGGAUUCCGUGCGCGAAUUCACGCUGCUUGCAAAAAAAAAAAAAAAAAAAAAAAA

CN(C)c1ccc2c(-c3cc(C(=O)O)ccc3C(=O)[N-]S(=O)(=O)N(C)C)c3ccc(=[N+](C)C)cc-3oc2c1
Kd (T1, RNA aptamer; fluorescence titration, quadratic fit; room temperature, K+ 125 mM, together with: Mg2+ 1 mM): 120 nM

COc1ccc(-c2ccc3c(c2)C(=Cc2sc4ccccc4[n+]2CC(=O)NCCOCCOCCOCCNC(=O)CCCC[C@@H]2SC[C@@H]4NC(=O)N[C@@H]42)C=CN3C)cc1
Kd (T2, RNA aptamer; fluorescence titration): 0.22 nM

CN1C=C/C(=C\c2sc3ccccc3[n+]2CC(=O)NCc2ccccc2-n2cccn2)c2ccccc21
Kd (T3, RNA aptamer; fluorescence titration; apparent): 0.29 nM

CN1C=CC(=Cc2sc3ccccc3[n+]2CC(=O)NCCOCCOCCOCCNC(=O)CCCC[C@@H]2SC[C@@H]3NC(=O)N[C@@H]32)c2ccccc21
Kd (T4, RNA aptamer; fluorescence titration): 2.89 nM

Fc1ccc(Nc2nc(NCc3ncccn3)nc(Nc3ccc(F)cc3)n2)cc1
Kd (T5, RNA aptamer; SPR; 25 °C): 12 nM

COc1ccc(-c2ccc3c(c2)C(=Cc2sc4ccccc4[n+]2C)C=CN3C)cc1
Kd (T6, RNA aptamer; fluorescence titration): 4.89 nM

CN1C=C/C(=C\c2sc3ccccc3[n+]2CC(=O)NCc2ccccc2F)c2ccccc21
Kd (T3, RNA aptamer; fluorescence titration; apparent): 0.21 nM

CN1C=CC(=Cc2sc3ccccc3[n+]2C)c2ccccc21
Kd (T6, RNA aptamer; fluorescence titration): 0.43 nM

CN1C=C/C(=C\c2sc3ccccc3[n+]2CC(=O)NCc2ccccc2)c2ccccc21
binding (T3, RNA aptamer; X-ray crystallography): binds

CN(C)c1ccc2c(-c3ccccc3C(=O)[N-]S(=O)(=O)N(C)C)c3ccc(=[N+](C)C)cc-3oc2c1
Kd (T1, RNA aptamer; fluorescence titration, quadratic fit; Na+ 1 M, no Mg2+, together with: EDTA 1 mM): 110 nM

CN1C=C/C(=C\c2sc3ccccc3[n+]2CC(=O)NCc2c(F)cccc2-n2cccn2)c2ccccc21
Kd (T3, RNA aptamer; fluorescence titration; apparent): 0.69 nM

Fc1ccc(Nc2nc(NCc3ncccn3)nc(Nc3ccccc3)n2)cc1
Kd (T7, RNA aptamer; SPR; 25 °C, read off a plot): 20 nM

Excerpt of the above:
CN(C)c1ccc2c(-c3ccccc3C(=O)[N-]S(=O)(=O)N(C)C)c3ccc(=[N+](C)C)cc-3oc2c1
Kd (T1, RNA aptamer; fluorescence titration, quadratic fit; Na+ 1 M, no Mg2+, together with: EDTA 1 mM): 110 nM

CN1C=C/C(=C\c2sc3ccccc3[n+]2CC(=O)NCc2ccccc2-n2cccn2)c2ccccc21
Kd (T3, RNA aptamer; fluorescence titration; apparent): 0.29 nM
